# Assay results pooled from the literature.
# Each line is one published result; not all experiments were run side by side. ± gives the spread as reported.
# UniProt O75116, sequence (whole entry, looked up): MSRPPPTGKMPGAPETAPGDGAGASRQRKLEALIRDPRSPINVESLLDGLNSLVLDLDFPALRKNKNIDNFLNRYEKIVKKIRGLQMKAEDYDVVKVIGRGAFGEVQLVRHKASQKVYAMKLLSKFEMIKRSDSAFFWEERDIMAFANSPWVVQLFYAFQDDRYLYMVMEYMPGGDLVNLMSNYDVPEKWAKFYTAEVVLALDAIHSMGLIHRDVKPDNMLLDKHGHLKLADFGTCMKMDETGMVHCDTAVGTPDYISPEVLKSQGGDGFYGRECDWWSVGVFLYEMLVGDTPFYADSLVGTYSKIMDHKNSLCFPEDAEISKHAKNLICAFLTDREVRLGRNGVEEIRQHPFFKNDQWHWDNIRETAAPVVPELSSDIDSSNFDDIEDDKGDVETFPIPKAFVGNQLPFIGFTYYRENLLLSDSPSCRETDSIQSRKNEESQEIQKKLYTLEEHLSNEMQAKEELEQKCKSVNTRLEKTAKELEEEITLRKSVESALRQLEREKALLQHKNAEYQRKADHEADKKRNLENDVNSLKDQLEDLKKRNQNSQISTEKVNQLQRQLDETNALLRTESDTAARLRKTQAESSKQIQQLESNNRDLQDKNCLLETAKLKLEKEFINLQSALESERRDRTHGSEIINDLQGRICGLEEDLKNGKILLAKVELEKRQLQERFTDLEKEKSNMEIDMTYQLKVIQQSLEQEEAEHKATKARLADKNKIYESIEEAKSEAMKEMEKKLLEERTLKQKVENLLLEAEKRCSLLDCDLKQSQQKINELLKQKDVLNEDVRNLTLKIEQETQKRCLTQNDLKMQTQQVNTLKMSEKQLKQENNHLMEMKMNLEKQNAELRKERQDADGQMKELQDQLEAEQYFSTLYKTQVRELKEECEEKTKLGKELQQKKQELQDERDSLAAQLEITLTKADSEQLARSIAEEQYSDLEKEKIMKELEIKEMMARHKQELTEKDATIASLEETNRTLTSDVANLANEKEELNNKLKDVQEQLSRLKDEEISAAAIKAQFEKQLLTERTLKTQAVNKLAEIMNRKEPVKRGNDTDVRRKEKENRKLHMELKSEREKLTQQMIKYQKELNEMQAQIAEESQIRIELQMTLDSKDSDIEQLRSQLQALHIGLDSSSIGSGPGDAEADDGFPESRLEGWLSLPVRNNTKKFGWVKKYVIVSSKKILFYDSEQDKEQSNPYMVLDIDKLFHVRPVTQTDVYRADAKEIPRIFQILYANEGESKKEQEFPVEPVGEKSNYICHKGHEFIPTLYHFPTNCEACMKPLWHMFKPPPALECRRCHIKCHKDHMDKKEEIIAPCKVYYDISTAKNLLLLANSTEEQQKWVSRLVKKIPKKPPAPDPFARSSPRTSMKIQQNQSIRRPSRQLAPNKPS
Compound,target or system,assay,test system,setting,how to read,quantity,result
COc1ccc(-c2ccnc3[nH]nc(C#Cc4cccnc4)c23)cc1OC,dengue virus 2,viral replication,Huh-7,,,EC50,2.62 ± 0.46 µM
CCN(CC)CCO[C@H]1CC[C@@]2(C)C(=CC[C@@H]3[C@@H]2CC[C@]2(C)C(=O)CC[C@@H]32)C1,human rotavirus,"viral replication, focus reduction",MA104,pretreated 20 h before infection,,EC50,7.84 µM
NC(=O)c1ncn([C@@H]2O[C@H](CO)[C@@H](O)[C@H]2O)n1,respiratory syncytial virus,viral replication,HeLa,,,EC50,6 µM
COc1ccc(-c2ncnc3[nH]cc(C#Cc4cccnc4)c23)cc1OC,dengue virus 2,viral replication,Huh-7,,,EC50,2.62 ± 0.07 µM
NC(=O)[C@@H](CCC(F)(F)F)N(Cc1ccc(-c2ncon2)cc1F)S(=O)(=O)c1ccc(Cl)cc1,dengue virus 2,"viral replication, luciferase reporter virus",Huh-7.5.1,,,EC50,7.7 µM
COc1ccc(-c2ccnc3[nH]cc(C#Cc4cccnc4)c23)cc1F,dengue virus 2,viral replication,Huh-7,,,EC50,0.92 ± 0.1 µM
NC(=O)c1ncn([C@@H]2O[C@H](CO)[C@@H](O)[C@H]2O)n1,dengue virus 2,viral replication,BHK-21,96 h,,EC50,16 µM
Cc1[nH]c(C)c(-c2ccc(OCCn3cnc(Cl)c3Cl)cc2)c(=O)c1Br,Plasmodium falciparum,"parasite growth, SYBR Green",3D7 wild type,72 h,,EC50,1.1 ± 0.18 µM
COc1ccc([C@@]23Oc4cc(OC)cc(OC)c4[C@]2(O)[C@H](O)[C@H](C(=O)N(C)C)[C@H]3c2ccccc2)cc1,Hepatitis C virus,viral replication,"Huh-7.5.1, JFH-1 genotype 2a (HCVcc)",,,EC50,~0.004 µM
Cc1[nH]c2ccc(-c3ccccc3)cc2c(=O)c1Br,Plasmodium falciparum,"parasite growth, SYBR Green",3D7 DHODH E182D,72 h,,EC50,0.558 ± 0.12 µM
C[C@H]1CN(c2n[nH]c3nc(N[C@H]4CC[C@H](NS(=O)(=O)CCC(F)(F)F)CC4)ncc23)CCO1,"ROCK2 (Homo sapiens, UniProt O75116)","inhibitor, Kinobeads competition profiling",,0.16 µM,reference: vehicle,relative abundance,1.07
O=C(CN1CCN(C(=O)c2ccco2)CC1)Nc1ccccc1Br,Plasmodium falciparum,parasite growth,Dd2,,,EC50,0.154 ± 0.019 µM
Nc1nc(O)c2ncn(COC(CO)CO)c2n1,feline infectious peritonitis virus,"viral cytopathic effect, MTS",CRFK,,,EC50,> 100 µM
OC(c1cc(C(F)(F)F)nc2c(C(F)(F)F)cccc12)C1CCCCN1 (stereo not drawn),Plasmodium falciparum,parasite growth,Dd2,,,EC50,0.00803 ± 0.003 µM
COC(=O)N[C@H](C(=O)N1CCC[C@H]1c1ncc(-c2ccc(-c3ccc(-c4cnc([C@@H]5CCCN5C(=O)[C@@H](NC(=O)OC)C(C)C)[nH]4)cc3)cc2)[nH]1)C(C)C,hepatitis C virus,"viral replication, transient replicon",genotype 1a NS5A L31V,,,EC50,0.021 µM
Cc1cccc(C(=O)N2CCN(Cc3cccc(NC(=O)c4ccco4)c3)CC2)c1,Plasmodium falciparum,"parasite growth, SYBR Green",3D7 DHODH E182D,72 h,,EC50,1.32 ± 0.11 µM
C[C@@]1(O)[C@H](O)[C@@H](CO)O[C@H]1n1ccc2c(N)ncnc21,dengue virus 2,viral replication,"Huh-7.5.1, Renilla luciferase reporter",48 h,,EC50,1.1 µM
O[C@@H]1[C@H](O)[C@@H]2C[C@@H]2[C@H]1n1cnc2c(NC(C3CC3)C3CC3)nc(Cl)nc21,respiratory syncytial virus,"viral replication, visual cytopathic effect","MA104, A2",,,EC50,32 µM
CCc1cc2c(cc1CC)CC(NC[C@@H](O)c1ccc(O)c3[nH]c(=O)ccc13)C2,Plasmodium falciparum,"parasite growth, SYBR Green",3D7 wild type,72 h,,EC50,0.457 ± 0.028 µM
C[C@H]1c2cccc(O)c2C(=O)C2=C(O)[C@]3(O)C(=O)C(C(N)=O)=C(O)[C@@H](N(C)C)[C@@H]3[C@@H](O)[C@@H]21,Plasmodium falciparum,,HB3,,,IC50,5.01 µM
C(#Cc1c[nH]c2nccc(-c3ccsc3)c12)c1cccnc1,dengue virus 2,viral replication,Huh-7,,,EC50,7.56 ± 0.74 µM
Nc1nc(N)c2nc(-c3ccccc3)c(N)nc2n1,Plasmodium falciparum,,W2,,,IC50,12.6 µM
Fc1ccc(-c2ccnc3[nH]cc(C#Cc4cccnc4)c23)cc1,dengue virus 2,viral replication,Huh-7,,,EC50,6.17 ± 0.56 µM
COCCn1c2nc(=O)n(-c3ccccc3)c(=O)c-2nc2ccccc21,Dengue virus 2,viral replication,replicon,,,EC50,11.4 µM

# Excerpt of the above:
Compound,target or system,assay,test system,setting,how to read,quantity,result
O=C(CN1CCN(C(=O)c2ccco2)CC1)Nc1ccccc1Br,Plasmodium falciparum,parasite growth,Dd2,,,EC50,0.154 ± 0.019 µM
Nc1nc(O)c2ncn(COC(CO)CO)c2n1,feline infectious peritonitis virus,"viral cytopathic effect, MTS",CRFK,,,EC50,> 100 µM
